{"data": "Measured values of several laboratories", "note": "Every numbered part comes from another study and shows a few of its results, in no order."}
{"data": "Sample 1", "organism": "Saccharomyces cerevisiae", "effect on": "binding", "method": "yeast competitive growth sequencing", "form": "peptide", "strain": "cyclin A1-Cln2 strain", "sample": "peptide tiling library", "notes": "pooled screen", "direction": "direction not given"}
{"Molecule": "ALTMEALEDPSPELME", "enrichment score": 1.53}
{"Molecule": "RRRRLLFWDKETQI", "enrichment score": -1.3}
{"Molecule": "RNRGPKLNAMLRLGVL", "enrichment score": -1.98}
{"Molecule": "HRRRLLFACSPPPASQ", "enrichment score": -1.89}
{"data": "Sample 2", "target": "Hepatocyte nuclear factor 3-beta, forkhead domain (FOXA2, Homo sapiens, UniProt Q9Y261, residues 142-269)", "method": "protein-binding microarray", "form": "double-stranded DNA, one strand shown", "sample": "in vitro", "tested at": "not given", "notes": "k-mer, scored over probes, only values ≥0.25", "direction": "higher = stronger binding", "Construct (chain)": "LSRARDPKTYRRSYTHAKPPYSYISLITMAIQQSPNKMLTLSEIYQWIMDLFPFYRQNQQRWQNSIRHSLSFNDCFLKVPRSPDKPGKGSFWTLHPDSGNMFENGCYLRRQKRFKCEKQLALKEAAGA"}
{"Sequence": "GATAAGTA", "E-score": 0.265}
{"Sequence": "ATTCCATA", "E-score": 0.28}
{"Sequence": "TATCAATA", "E-score": 0.255}
{"Sequence": "ATAACATC", "E-score": 0.326}
{"Sequence": "ACCTGATA", "E-score": 0.255}
{"Sequence": "AAATATAT", "E-score": 0.377}
{"Sequence": "TATCACAA", "E-score": 0.279}
{"Sequence": "GACTATAA", "E-score": 0.261}
{"Sequence": "ATTAACGA", "E-score": 0.267}
{"Sequence": "AATCATGA", "E-score": 0.298}
{"Sequence": "AATCGATA", "E-score": 0.253}
{"Sequence": "ATACAGTA", "E-score": 0.347}
{"Sequence": "GATACAAA", "E-score": 0.27}
{"Sequence": "TCTTTACA", "E-score": 0.28}
{"data": "Sample 3", "target": "Fragile X messenger ribonucleoprotein 1, C-terminal low-complexity region (Fmr1, Mus musculus, UniProt P35922)", "method": "RNA Bind-n-Seq", "form": "RNA", "sample": "in vitro", "tested at": "200 nM", "notes": "whole 134-nt RNA, ends assumed", "together with": "150 mM LiCl", "reference": "input library", "direction": "higher = stronger binding", "all molecules": "7-deaza-guanosine replaces G", "constant ends, left off below": "GGGAGUUCUACAGUCCGACGAUC … UGGAAUUCUCGGGUGUCAAGG"}
{"Sequence": "CACAGACAACACGCACCCACACAGACACAGAGGCAAGGGGUUGGGAUGGGGACAGGGUGCACAGCAGGGCGGGGUAGGACCCCAGCCCCU", "log2 enrichment": 0.949}
{"Sequence": "UAACUUUAGAGGAGGAUCUGAUGGAUAUGGAAGUGGACGUGGAUUUGGGGAUGGCUAUAAUGGGUAUGGAGGAGGACCUGGAGGUGGCAA", "log2 enrichment": 0.571}
{"Sequence": "CUGUGCUACACAUCGUAUGUACCGAAUCGGGGAAAAAAAGGGGAAAAAGGGGAAAAAGGGGAAAGUAUUAUGUUACGCCGUUCGGAUCUG", "log2 enrichment": 1.11}
{"Sequence": "UAACUUUAGAGGAGGAUCUGAUGGAUAUGGCAGUGGACGUGGAUUUGGGGAUGGCUAUAAUGGGUAUGGAGGAGGACCUGGAGGUGCCAA", "log2 enrichment": -0.0621}
{"Sequence": "UCCUGUGCUACACAUCGUAUGUACCGAAUCGGUUUUUUGGGUUUUUUGGGGUUUUUUGGAAAGUAUUAUGUUACGCCGUUCGGAUCUGCA", "log2 enrichment": 0.172}
{"Sequence": "UCCUGUGCUACACAUCGUAUGUACCGAAUCGGCCCCCCGGGGCCCCCCGGCCCCCCGGGAAAGUAUUAUGUUACGCCGUUCGGAUCUGCA", "log2 enrichment": -2.4}
{"Sequence": "UCAAGUCCUGUGCUACACAUCGUAUGUACCGAAUCGGAAAGGAAAGGUUUUUGGAAAGUAUUAUGUUACGCCGUUCGGAUCUGCACUUCC", "log2 enrichment": -0.919}
{"Sequence": "CCUCAAGUCCUGUGCUACACAUCGUAUGUACCGAAUCGGGGAGGAGGGAGGGAAAGUAUUAUGUUACGCCGUUCGGAUCUGCACUUCCAG", "log2 enrichment": -0.477}
{"data": "Sample 4", "target": "Histone acetyltransferase KAT6A, winged helix 2, GST fusion (KAT6A, Homo sapiens, UniProt Q92794, residues 85-181)", "method": "protein binding microarray", "form": "double-stranded DNA, one strand shown", "sample": "in vitro", "tested at": "not given", "notes": "8-mer, flanks averaged, mean of 2 arrays, mostly near background", "reference": "not given", "direction": "higher = stronger binding", "Construct (chain)": "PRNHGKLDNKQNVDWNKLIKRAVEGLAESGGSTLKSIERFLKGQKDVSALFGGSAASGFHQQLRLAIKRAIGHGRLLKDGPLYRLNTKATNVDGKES"}
{"Sequence": "GGAGCTCA", "E-score": -0.0451}
{"Sequence": "ATTAAACA", "E-score": 0.0781}
{"Sequence": "TGTCGTAA", "E-score": -0.107}
{"Sequence": "GGACATAA", "E-score": -0.000455}
{"Sequence": "TAAAGCAA", "E-score": 0.062}
{"Sequence": "GCCCATGA", "E-score": 0.108}
{"Sequence": "ATATGAAA", "E-score": 0.0191}
{"Sequence": "ATGTTGCG", "E-score": 0.0949}
{"Sequence": "CACAGTTA", "E-score": -0.0452}
{"Sequence": "CGCCAACA", "E-score": 0.143}
{"Sequence": "AATTGTAG", "E-score": -0.0872}
{"Sequence": "CCGCGTTC", "E-score": 0.154}
{"Sequence": "ACTGAACA", "E-score": 0.0676}
{"Sequence": "CAAAGATG", "E-score": -0.0326}
{"Sequence": "ACGTATTG", "E-score": -0.182}
{"Sequence": "ACAAGAAT", "E-score": -0.0759}
{"Sequence": "GCTGACTA", "E-score": -0.0425}
{"Sequence": "GGCCTCCC", "E-score": 0.108}
{"Sequence": "AATCTGCG", "E-score": -0.0486}
{"data": "Single results of other studies"}
{"Molecule": "PhoQ, residues 284 288 289 292 302 303 SNSSNI", "target": "PhoP, residues 12 14 15 18 19 NHTVL (Escherichia coli, UniProt P23836)", "assay": "Sort-seq, refers to: YFP reporter", "system": "E. coli", "setting": "PhoQ-PhoP variant library, together with: 10 µM Mg2+", "scale": "reference: high Mg2+ state, higher = stronger signaling", "measurement": "fold induction", "result": 7.51}
{"note": "Some of these lines once more (sample 3):"}
{"Sequence": "CACAGACAACACGCACCCACACAGACACAGAGGCAAGGGGUUGGGAUGGGGACAGGGUGCACAGCAGGGCGGGGUAGGACCCCAGCCCCU", "log2 enrichment": 0.949}
{"Sequence": "UAACUUUAGAGGAGGAUCUGAUGGAUAUGGAAGUGGACGUGGAUUUGGGGAUGGCUAUAAUGGGUAUGGAGGAGGACCUGGAGGUGGCAA", "log2 enrichment": 0.571}
{"Sequence": "CUGUGCUACACAUCGUAUGUACCGAAUCGGGGAAAAAAAGGGGAAAAAGGGGAAAAAGGGGAAAGUAUUAUGUUACGCCGUUCGGAUCUG", "log2 enrichment": 1.11}
{"Sequence": "UAACUUUAGAGGAGGAUCUGAUGGAUAUGGCAGUGGACGUGGAUUUGGGGAUGGCUAUAAUGGGUAUGGAGGAGGACCUGGAGGUGCCAA", "log2 enrichment": -0.0621}
{"Sequence": "UCCUGUGCUACACAUCGUAUGUACCGAAUCGGUUUUUUGGGUUUUUUGGGGUUUUUUGGAAAGUAUUAUGUUACGCCGUUCGGAUCUGCA", "log2 enrichment": 0.172}
{"Sequence": "UCCUGUGCUACACAUCGUAUGUACCGAAUCGGCCCCCCGGGGCCCCCCGGCCCCCCGGGAAAGUAUUAUGUUACGCCGUUCGGAUCUGCA", "log2 enrichment": -2.4}
{"Sequence": "UCAAGUCCUGUGCUACACAUCGUAUGUACCGAAUCGGAAAGGAAAGGUUUUUGGAAAGUAUUAUGUUACGCCGUUCGGAUCUGCACUUCC", "log2 enrichment": -0.919}
{"Sequence": "CCUCAAGUCCUGUGCUACACAUCGUAUGUACCGAAUCGGGGAGGAGGGAGGGAAAGUAUUAUGUUACGCCGUUCGGAUCUGCACUUCCAG", "log2 enrichment": -0.477}
